Assay results pooled from the literature.
Values joined by “and” are separate records of one study, mostly repeats; a detail may differ. ± gives the spread as reported.
Gria1: Glutamate receptor 1 (Gria1, Rattus norvegicus, UniProt P19490)
Sequence of UniProt P19490 (whole entry, looked up): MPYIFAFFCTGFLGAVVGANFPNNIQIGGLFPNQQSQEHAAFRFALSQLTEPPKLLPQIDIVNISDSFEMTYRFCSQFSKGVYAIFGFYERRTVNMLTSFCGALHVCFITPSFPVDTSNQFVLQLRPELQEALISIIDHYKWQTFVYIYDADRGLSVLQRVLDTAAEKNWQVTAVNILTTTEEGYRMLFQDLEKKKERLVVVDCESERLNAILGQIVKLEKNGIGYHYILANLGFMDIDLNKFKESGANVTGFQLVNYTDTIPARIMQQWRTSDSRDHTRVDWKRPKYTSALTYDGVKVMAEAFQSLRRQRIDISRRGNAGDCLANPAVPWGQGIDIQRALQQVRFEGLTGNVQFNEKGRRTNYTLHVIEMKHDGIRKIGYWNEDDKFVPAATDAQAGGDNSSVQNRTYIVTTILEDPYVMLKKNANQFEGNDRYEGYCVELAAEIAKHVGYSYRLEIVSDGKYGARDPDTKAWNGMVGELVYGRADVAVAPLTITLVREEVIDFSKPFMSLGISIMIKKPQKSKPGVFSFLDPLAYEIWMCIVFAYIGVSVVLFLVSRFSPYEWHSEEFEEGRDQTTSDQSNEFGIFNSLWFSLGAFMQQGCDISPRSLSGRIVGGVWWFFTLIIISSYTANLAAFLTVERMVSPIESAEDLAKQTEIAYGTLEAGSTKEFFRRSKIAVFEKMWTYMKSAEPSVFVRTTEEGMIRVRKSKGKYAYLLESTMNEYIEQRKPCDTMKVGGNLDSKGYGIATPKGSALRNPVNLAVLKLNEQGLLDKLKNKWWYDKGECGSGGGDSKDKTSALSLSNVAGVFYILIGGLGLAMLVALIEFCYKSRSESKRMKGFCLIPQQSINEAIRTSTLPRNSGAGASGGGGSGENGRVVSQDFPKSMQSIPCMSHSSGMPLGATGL
TDP1: Tyrosyl-DNA phosphodiesterase 1 (TDP1, Homo sapiens, UniProt Q9NUW8)
Sequence of UniProt Q9NUW8 (whole entry, looked up): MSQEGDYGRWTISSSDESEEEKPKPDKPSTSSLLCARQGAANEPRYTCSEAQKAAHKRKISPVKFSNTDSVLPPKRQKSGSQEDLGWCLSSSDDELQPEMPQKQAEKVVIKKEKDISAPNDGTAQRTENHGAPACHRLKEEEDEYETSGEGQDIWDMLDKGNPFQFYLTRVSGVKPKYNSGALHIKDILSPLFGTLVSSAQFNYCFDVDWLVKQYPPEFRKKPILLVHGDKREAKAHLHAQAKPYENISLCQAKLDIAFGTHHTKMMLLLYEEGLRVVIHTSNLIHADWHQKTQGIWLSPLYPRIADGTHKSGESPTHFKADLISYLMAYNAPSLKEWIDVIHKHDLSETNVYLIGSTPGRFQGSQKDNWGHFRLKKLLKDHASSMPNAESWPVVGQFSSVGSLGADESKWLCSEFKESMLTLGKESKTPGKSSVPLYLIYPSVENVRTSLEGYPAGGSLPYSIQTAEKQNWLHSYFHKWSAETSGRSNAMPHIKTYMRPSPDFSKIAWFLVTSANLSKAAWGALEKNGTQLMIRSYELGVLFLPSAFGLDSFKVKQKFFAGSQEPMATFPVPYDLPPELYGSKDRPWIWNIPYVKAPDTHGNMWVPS
H3C15: Histone H3.2 (H3C15, Homo sapiens, UniProt Q71DI3)
CASP6: Caspase-6 (CASP6, Homo sapiens, UniProt P55212)
Sequence of UniProt P55212 (whole entry, looked up): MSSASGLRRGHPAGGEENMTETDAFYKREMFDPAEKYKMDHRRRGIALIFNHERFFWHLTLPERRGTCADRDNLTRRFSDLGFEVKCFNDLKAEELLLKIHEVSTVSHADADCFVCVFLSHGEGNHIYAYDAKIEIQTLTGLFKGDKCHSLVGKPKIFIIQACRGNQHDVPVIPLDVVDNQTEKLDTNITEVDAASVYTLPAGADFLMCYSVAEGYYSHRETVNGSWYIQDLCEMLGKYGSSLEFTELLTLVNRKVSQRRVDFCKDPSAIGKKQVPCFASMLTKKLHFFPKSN
MAPK8: Mitogen-activated protein kinase 8 (MAPK8, Homo sapiens, UniProt P45983)
Sequence of UniProt P45983 (whole entry, looked up): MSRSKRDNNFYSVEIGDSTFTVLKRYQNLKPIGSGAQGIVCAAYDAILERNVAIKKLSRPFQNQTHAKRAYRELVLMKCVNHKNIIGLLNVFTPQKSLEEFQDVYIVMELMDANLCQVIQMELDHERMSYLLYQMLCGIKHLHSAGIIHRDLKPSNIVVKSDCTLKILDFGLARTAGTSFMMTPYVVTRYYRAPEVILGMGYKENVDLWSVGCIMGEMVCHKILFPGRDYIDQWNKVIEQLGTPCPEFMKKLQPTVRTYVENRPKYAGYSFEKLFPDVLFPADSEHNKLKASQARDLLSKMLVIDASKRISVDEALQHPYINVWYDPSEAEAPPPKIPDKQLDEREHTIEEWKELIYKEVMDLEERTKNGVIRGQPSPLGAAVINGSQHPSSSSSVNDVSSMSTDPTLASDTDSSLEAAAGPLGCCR
T1: dsDNA, duplex; chain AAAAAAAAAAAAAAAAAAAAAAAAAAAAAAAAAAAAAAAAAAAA; chain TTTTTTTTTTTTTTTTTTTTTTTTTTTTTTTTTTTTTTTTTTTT
T2: RNA, abasic bulge mismatch; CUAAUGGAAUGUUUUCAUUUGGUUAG
Sequence of UniProt Q9CAJ0 (whole entry, looked up): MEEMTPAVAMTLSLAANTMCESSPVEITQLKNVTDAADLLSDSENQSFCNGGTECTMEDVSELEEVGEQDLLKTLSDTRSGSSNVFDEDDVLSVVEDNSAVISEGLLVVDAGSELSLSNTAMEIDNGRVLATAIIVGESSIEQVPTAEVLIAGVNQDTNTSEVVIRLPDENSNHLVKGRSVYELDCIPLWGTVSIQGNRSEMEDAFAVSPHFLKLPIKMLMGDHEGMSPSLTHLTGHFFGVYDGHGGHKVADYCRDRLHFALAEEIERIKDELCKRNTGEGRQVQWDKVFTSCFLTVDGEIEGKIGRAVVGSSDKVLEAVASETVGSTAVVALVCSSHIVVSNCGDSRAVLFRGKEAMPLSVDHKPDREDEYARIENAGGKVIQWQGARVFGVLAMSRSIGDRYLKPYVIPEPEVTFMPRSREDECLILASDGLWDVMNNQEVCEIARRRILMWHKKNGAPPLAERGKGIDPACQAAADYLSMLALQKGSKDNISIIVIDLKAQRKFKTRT
Sequence of UniProt P46089 (whole entry, looked up): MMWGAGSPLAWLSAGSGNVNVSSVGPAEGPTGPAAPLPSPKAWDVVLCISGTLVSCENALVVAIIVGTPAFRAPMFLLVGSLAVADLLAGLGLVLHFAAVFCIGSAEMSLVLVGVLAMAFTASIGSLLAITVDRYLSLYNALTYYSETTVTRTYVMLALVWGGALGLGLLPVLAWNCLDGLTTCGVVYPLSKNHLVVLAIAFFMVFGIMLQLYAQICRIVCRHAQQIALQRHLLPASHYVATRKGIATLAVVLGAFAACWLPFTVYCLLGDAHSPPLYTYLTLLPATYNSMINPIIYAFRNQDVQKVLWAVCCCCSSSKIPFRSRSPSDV
Sequence of UniProt P32238 (whole entry, looked up): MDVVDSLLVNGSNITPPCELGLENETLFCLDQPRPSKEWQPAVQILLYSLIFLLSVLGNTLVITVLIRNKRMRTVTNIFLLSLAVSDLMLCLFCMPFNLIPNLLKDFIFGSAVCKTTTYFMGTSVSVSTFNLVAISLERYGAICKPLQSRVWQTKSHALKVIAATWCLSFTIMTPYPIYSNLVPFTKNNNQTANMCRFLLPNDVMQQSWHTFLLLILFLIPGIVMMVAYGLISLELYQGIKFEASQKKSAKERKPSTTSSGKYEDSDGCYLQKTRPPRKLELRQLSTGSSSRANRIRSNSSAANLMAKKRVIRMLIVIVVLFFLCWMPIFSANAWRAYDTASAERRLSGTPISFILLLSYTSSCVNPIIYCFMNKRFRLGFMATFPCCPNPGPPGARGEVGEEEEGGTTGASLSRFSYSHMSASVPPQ
Sequence of UniProt P08191 (whole entry, looked up): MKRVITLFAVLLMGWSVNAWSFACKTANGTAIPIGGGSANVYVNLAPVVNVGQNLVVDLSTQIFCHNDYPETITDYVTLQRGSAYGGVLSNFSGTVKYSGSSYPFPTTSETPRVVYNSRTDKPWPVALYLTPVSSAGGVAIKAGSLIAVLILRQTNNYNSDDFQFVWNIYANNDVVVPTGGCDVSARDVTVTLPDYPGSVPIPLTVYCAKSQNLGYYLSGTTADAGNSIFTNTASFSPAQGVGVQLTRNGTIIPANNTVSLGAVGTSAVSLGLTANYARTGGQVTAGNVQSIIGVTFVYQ
Sequence of UniProt P41148 (whole entry, unmodified, looked up): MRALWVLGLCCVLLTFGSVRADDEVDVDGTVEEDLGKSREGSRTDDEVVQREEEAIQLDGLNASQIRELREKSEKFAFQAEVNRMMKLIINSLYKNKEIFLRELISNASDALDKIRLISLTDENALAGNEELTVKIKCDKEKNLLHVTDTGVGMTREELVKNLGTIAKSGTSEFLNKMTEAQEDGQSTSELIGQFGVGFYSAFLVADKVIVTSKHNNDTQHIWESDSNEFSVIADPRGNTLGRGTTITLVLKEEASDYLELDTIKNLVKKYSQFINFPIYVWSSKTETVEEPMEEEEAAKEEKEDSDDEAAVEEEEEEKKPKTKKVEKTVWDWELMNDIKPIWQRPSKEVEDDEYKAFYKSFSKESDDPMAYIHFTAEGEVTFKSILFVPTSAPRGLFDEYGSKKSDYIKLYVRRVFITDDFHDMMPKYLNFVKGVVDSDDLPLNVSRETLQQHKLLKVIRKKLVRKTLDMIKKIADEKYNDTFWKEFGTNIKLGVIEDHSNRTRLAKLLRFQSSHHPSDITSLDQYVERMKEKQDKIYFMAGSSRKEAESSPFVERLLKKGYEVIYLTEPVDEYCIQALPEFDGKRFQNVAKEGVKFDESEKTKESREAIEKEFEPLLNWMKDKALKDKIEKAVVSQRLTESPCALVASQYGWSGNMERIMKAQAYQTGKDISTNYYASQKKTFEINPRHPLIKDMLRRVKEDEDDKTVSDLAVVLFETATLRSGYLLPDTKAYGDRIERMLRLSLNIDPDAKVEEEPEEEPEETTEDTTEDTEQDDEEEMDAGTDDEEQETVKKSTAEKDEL
Sequence of UniProt Q13951 (whole entry, looked up): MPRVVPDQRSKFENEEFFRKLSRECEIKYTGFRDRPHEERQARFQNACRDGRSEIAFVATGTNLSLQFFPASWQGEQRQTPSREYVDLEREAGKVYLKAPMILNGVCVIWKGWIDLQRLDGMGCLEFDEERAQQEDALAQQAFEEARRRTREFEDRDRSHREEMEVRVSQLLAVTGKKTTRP

For `CC(C)NCCCn1c(Sc2cc3c(cc2I)OCO3)nc2c(N)ncnc21`, the TΔS was -2.02 ± 1.03 kcal/mol (HSP90AA1/HSP90B1 (Homo sapiens, UniProt P07900+P41148, E62I/S52A/Y61L); ITC).
With `CN(C(=O)C(C)(C)c1cc(C(F)(F)F)cc(C(F)(F)F)c1)c1cnc(N2C[C@H]3COCCN3C[C@H]2CO)cc1-c1ccc(F)cc1CO` the Vmax was 281 pmol/min/mg (human liver microsomes; substrate depletion).
`O=C(O)Cc1cc2c(cc1C(=O)c1cccc(I)c1)OCO2`: “current amplitude ratio” 3.33 ± 0.1 (Gria1; glutamate-evoked current, whole-cell patch clamp; HEK-293T; concentration not given; baseline: glutamate alone).
`O=C(O)c1ccc(Nc2c(-c3ccc(CON=Cc4cc(Cl)nc(-c5ccccc5)c4)cc3)nc3cc(-c4ccccc4)ccn23)cc1` (mixture of isomers) gave an inhibition of 50.6% (TDP1; enzyme activity, inhibitor; 100 µM, unpurified compound).
`CCCCCCCCn1c(CC)c(C)[n+](CCCCCCCC)c1CCC`: binding “binds” (T1, dsDNA, duplex; competition with EtBr, competitor, EtBr displacement fluorescence; Na+ 50 mM, together with: EtBr).
`O=C(O)c1ccc(Nc2c(-c3ccccc3)nc3ccc(CON=Cc4ccc(OCc5cnc(Cl)s5)cc4)cn23)cc1` has an inhibition of 77.8% (TDP1; enzyme activity, inhibitor; 100 µM, unpurified compound).
With `CCCCCCOc1ccc(C(=O)OCCN2CC=CCC2)cc1` the basal binding was 1.14 ± 0.04 fold (CHRM5 (Homo sapiens, UniProt P08912); membranes; 10 µM, 15 h, no carbachol; baseline: control).
For `CC(C)[C@@H]1NC(=O)[C@H](Cc2ccccc2)NC(=O)CSC[C@@H](C(N)=O)NC(=O)[C@H](CCC(=O)O)NC(=O)[C@H](CO)NC(=O)[C@H](Cc2c[nH]c3cccc(Cl)c23)NC(=O)[C@H](C2CCCCC2)NC(=O)[C@H](C(C)C)NC(=O)[C@H](Cc2ccc(O)cc2)NC(=O)[C@H](CC(=O)O)NC(=O)[C@H](Cc2c[nH]c3ccccc23)NC(=O)[C@H](Cc2ccc(N)nc2)NC(=O)[C@H](Cc2c[nH]c3ccc(Cl)cc23)NC(=O)[C@H](CCC(=O)O)NC1=O`, the remaining activity was 55.2% (Interleukin-1 receptor-like 2 (IL1RL2, Homo sapiens, UniProt Q9HB29); reporter gene (SEAP), inhibitor, HEK-Blue IL-36R reporter; HEK-Blue IL-36R cells; 33.33 µM, 6 h, together with: IL-36β 3 ng/mL).
For `O=[N+]([O-])c1cc(Br)cc([N+](=O)[O-])c1NS(=O)(=O)c1ccc(Br)cc1`, the phosphatase activity was 0.21 a.u. and 0.216 a.u. and 0.224 a.u. (HAB1 (Arabidopsis thaliana, UniProt Q9CAJ0); inhibitor; 1000 µM, no PYL receptor; higher = more activity).
Under “deactivation time constant”, `COC(=O)Cc1cc2c(cc1C(=O)c1ccccc1I)OCO2` is recorded as 2.4 ± 0.1 ms (Gria1; glutamate-evoked current, whole-cell patch clamp; HEK-293T; concentration not given, weighted tau, 1 ms pulse, together with: glutamate).
For `CCCCCC(O)/C=C/C=O` (stereo not shown), “isoTOP-ABPP competition ratio” read 1.8 (H3C15; competitive isoTOP-ABPP, item: HIST2H3C cysteine peptide; Ramos soluble proteome; 100 µM, together with: iodoacetamide probe; baseline: DMSO over compound-treated, higher = stronger cysteine blockade).
With `COc1cc([N+](=O)[O-])ccc1CC=NOCc1ccc(-c2nc3cc(-c4ccccc4)ccn3c2Nc2ccc(C(=O)O)cc2)cc1` the inhibition was 37.7% (TDP1; enzyme activity, inhibitor; 100 µM, unpurified compound).
`COC1CN([C@H]2CC[C@H]([C@@]3(C)Oc4c(Cl)cc(C(=O)NCc5c(SC)cc(C)[nH]c5=O)c(C)c4O3)CC2)C1`: “log2 fold change” 3.48 (RNA-seq, item: SHB; human cancer patients, whole blood; dose not given, 24 h, PRC2 target gene; baseline: pretreatment sample).
For `Cc1ccc2ccc(NC(=O)OCCCN(CCCOC(=O)Nc3ccc4ccc(C)nc4n3)Cc3ccc(/N=N/c4ccc(CN(CCCOC(=O)Nc5ccc6ccc(C)nc6n5)CCCOC(=O)Nc5ccc6ccc(C)nc6n5)cc4)cc3)nc2n1`, binding read “no binding” (T2, RNA, abasic bulge mismatch; CSI-TOF-MS; before irradiation).
For `CC(=O)N[C@@H](CCC(C)C)C(=O)N[C@H](C(=O)N[C@@H](CO)C(=O)N[C@@H](CC(=O)O)C(=O)COC(=O)c1c(C)cccc1C)C(C)(C)C`, the kinact/KI was 400 M⁻¹ s⁻¹ (CASP6; enzyme activity, inhibitor).
Under “isoTOP-ABPP competition ratio”, `CCCCCCCCCCCCC/C=C/C=O` is recorded as 1.3 (Mini-chromosome maintenance complex-binding protein (Homo sapiens, UniProt Q9BTE3); competitive isoTOP-ABPP, item: C10orf119 cysteine peptide; Ramos soluble proteome; 100 µM, together with: iodoacetamide probe; baseline: DMSO over compound-treated, higher = stronger cysteine blockade).
With `CC[C@H](C)[C@@H]1NC(=O)[C@H](Cc2ccc(O)cc2)NC(=O)[C@H](Cc2ccccc2)NC(=O)[C@H](Cc2ccccc2)NC(=O)[C@H](Cc2ccccc2)NC(=O)CSC[C@@H](C(=O)N[C@@H](Cc2c[nH]cn2)C(N)=O)NC(=O)[C@H](CC(N)=O)NC(=O)[C@H](Cc2c[nH]c3ccccc23)NC1=O` the ΔTm was 1.97 °C (Bromodomain-containing protein 4, BD1 (BRD4, Homo sapiens, UniProt O60885); thermal stability, DSF; 200 µM).
`CCCCCCCO[C@H]1CO[C@H](CO)[C@@H](O)[C@H](O)[C@@H]1O` has a binding stoichiometry of 1.02 ± 0.02 (Type 1 fimbrin D-mannose specific adhesin, lectin domain (fimH, Escherichia coli K-12, UniProt P08191); isothermal titration calorimetry; concentration not given, 15 °C).
For `O=C(O)c1ccc(Nc2c(-c3ccc(CON=Cc4ccc5c(c4)Cc4ccccc4-5)cc3)nc3cc(-c4ccccc4)ccn23)cc1`, the inhibition was 53% (TDP1; enzyme activity, inhibitor; 100 µM).
The remaining binding of `Nc1ncc(-c2cc(-c3cnn(CC(F)(F)F)c3)ncc2F)nc1C(=O)NC1CNCC(F)C1` (stereo not shown) is reported as 100% (CSK; KINOMEscan; 1 µM; baseline: DMSO control).
The reactivity ratio of `C#CCCCCNC(=O)c1ccc(N(C(=O)C=C)c2ccc(Br)cc2)cc1` is reported as 1.83 (SCD (Homo sapiens, UniProt O00767); mass spectrometry profiling; H460 cell lysate; 100 µM over 10 µM, UniProt O00767; baseline: high over low concentration).
The remaining activity of `COC(=O)[C@@]1(C)C=C(C(=O)Nc2cccc(C(=O)Nc3ccc(Nc4nccc(-c5cccnc5)n4)c(C)c3)c2)C(=O)CC1` is reported as 0.354 (MAPK8; enzyme activity, inhibitor; 0.06097 µM, 18 h, unit not given, together with: GSH 10 mM pre-incubation; baseline: vehicle).
`O=C(O)c1ccc(Nc2c(-c3ccc(CON=Cc4ccc(OCc5ccccc5)cc4)cc3)nc3cc(-c4ccccc4)ccn23)cc1` (mixture of isomers) has an inhibition of 60.7% (TDP1; enzyme activity, inhibitor; 100 µM, unpurified compound).
For `CCCCCC=CC=C1C(=O)C=CC1CC=CCCCC(=O)O` (stereo not shown), “isoTOP-ABPP competition ratio” read 1.8 (H3C15; competitive isoTOP-ABPP, item: HIST2H3C cysteine peptide; proteome, soluble, MDA-MB-231; 100 µM, together with: iodoacetamide probe; baseline: DMSO over compound-treated, higher = stronger cysteine blockade).
For `CN1CCCNC(=O)c2cccc(c2)C(=O)NCCCN(C)CCCNc2cccc3c2C(=O)c2cccc(c2C3=O)NCCC1`, “log2 fold change” read -1.39 (SAS; RNA-Seq, item: TFB1M mRNA; 1 µM, 6 h; baseline: untreated cells).
`COc1ncc2nc(C)n(Cc3ncc(S(N)(=O)=O)cc3F)c2c1-c1ccccc1` gave an activation of 14% (CCKAR (Homo sapiens, UniProt P32238); agonist, cell-based; 10 µM).
`Cc1ccc2c(c1C)NC(=O)C2(O)CC(=O)c1ccc2c(c1)OCO2` (stereo not shown) gave a Hill slope of 0.76 (Uncharacterized protein (Trypanosoma brucei brucei, UniProt Q386Q8); inhibitor, coupled colorimetric; Trypanosoma brucei).
`CC(=O)N[C@@H](CC(C)C)C(=O)N[C@H](C(=O)N[C@@H](C)C(=O)N[C@@H](CC(=O)O)C(=O)COC(=O)c1c(C)cccc1C)C(C)(C)C` gave a kinact/KI of 2100 M⁻¹ s⁻¹ (CASP6; enzyme activity, inhibitor).
For `CC(C)Oc1cc(Cl)ccc1CNc1cc(-c2ccccc2)nc2ncnn12`, the cAMP luminescence was 43900 a.u. and 43200 a.u. and 29600 a.u. and 23800 a.u. and 30200 a.u. and 37900 a.u. and 55700 a.u. and 53200 a.u. (GPR3 (Homo sapiens, UniProt P46089); cAMP reporter; human cells; 10 pM; higher is more cAMP).
For `O=C1c2sc(-c3ccc(N4CCC(F)C4)nc3F)nc2CCN1c1cccnc1` (stereo not shown), the SPR response was 0.894 RU (TAR DNA-binding protein 43, aggregated (TARDBP, Homo sapiens, UniProt Q13148); binding, surface plasmon resonance; brain-derived TDP-43 aggregates; 18.8 nM).
For `Cc1ncsc1-c1ccc(C(C)NC(=O)C2CC(O)CN2C(=O)C(NC(=O)CCCCCCCCCCN2CCCC(Nc3ncc(Cl)c(Nc4ccccc4S(=O)(=O)C(C)C)n3)C2)C(C)(C)C)cc1` (stereo not shown), “log2 fold change” read -1.09 (22Rv1; RNA-seq, item: NBPF12 mRNA; concentration not given; baseline: DMSO).
`C=CCn1c(C)c(C=NOCc2ccc(-c3nc4cc(-c5ccccc5)ccn4c3Nc3ccc(C(=O)O)cc3)cc2)c2ccccc21` (mixture of isomers) has an inhibition of 17.9% (TDP1; enzyme activity, inhibitor; 100 µM, unpurified compound).
`CCCCCCOc1ccc(C(=O)OCC[N+]2(C)CC=CCC2)cc1` (stereo not shown) has a basal binding of 0.97 ± 0.03 fold (CHRM3 (Homo sapiens, UniProt P20309); membranes; 1 µM, 15 h, no carbachol; baseline: control).
The kinact/KI of `CC(=O)N[C@@H](Cc1ccc(N)cc1)C(=O)N[C@@H](CCCC(=O)O)C(=O)N[C@@H](CC1CCCCC1)C(=O)N[C@@H](CC(=O)O)C(=O)COC(=O)c1c(C)cccc1C` is reported as 89900 M⁻¹ s⁻¹ (CASP6; enzyme activity, inhibitor).
`O=C1c2sc(-c3ccc(N4CCC(CO)CC4)nc3F)nc2CCN1c1cccnc1` gave an inhibition of -12% (L-type Ca2+ channel, phenylalkylamine (verapamil) site; radioligand binding, BioPrint binding panel; 1 µM, together with: antagonist radioligand).
`C#CCOC(=O)[C@]1(C)C=C(C(=O)OC(C)(C)C)C(=O)CC1` — result for “normalized kinase activity”: 1.05 (MAPK8; enzyme activity, D-SENSOR; 1.646 µM, mean of replicates).
The selectivity index of `C[C@H](NCc1ccc(-c2ccc(F)cc2)cc1)C(N)=O` is reported as over 23.3 (MAOB (Homo sapiens, UniProt P27338); inhibitor, Amplex Red; together with: benzylamine; baseline: MAO-A IC50 over MAO-B IC50).
`COc1ccc2[nH]c(-c3ccccc3)nc2c1`: IC50 “inactive” (Core-binding factor subunit beta, with RUNX1 Runt domain (Homo sapiens, UniProt Q13951); Runt domain binding, inhibitor, FRET).
`O=C1NC(=O)/C(=C/c2ccc(C=NOCc3ccc(-c4nc5cc(-c6ccccc6)ccn5c4Nc4ccc(C(=O)O)cc4)cc3)cc2)N1` gave an inhibition of 95.6% (TDP1; enzyme activity, inhibitor; 100 µM).
`Cc1cc(C)cc(COc2cc3c(cc2OCc2cc(C)cc(C)c2)C2CC(O)(Cc4cn(CCOCCOCCNC(=O)CCCCC5SCC6NC(=O)NC65)nn4)CC(C)N2CC3)c1` (stereo not shown) has an SILAC ratio of 2.03 (Perilipin-3 (PLIN3, Homo sapiens, UniProt O60664); biotinylated probe pull-down; 10 µM probe; baseline: heavy over light).

For quick reference, copied from above:
The remaining activity of `COC(=O)[C@@]1(C)C=C(C(=O)Nc2cccc(C(=O)Nc3ccc(Nc4nccc(-c5cccnc5)n4)c(C)c3)c2)C(=O)CC1` is reported as 0.354 (MAPK8; enzyme activity, inhibitor; 0.06097 µM, 18 h, unit not given, together with: GSH 10 mM pre-incubation; baseline: vehicle).
`COc1ccc2[nH]c(-c3ccccc3)nc2c1`: IC50 “inactive” (Core-binding factor subunit beta, with RUNX1 Runt domain (Homo sapiens, UniProt Q13951); Runt domain binding, inhibitor, FRET).
`O=C(O)c1ccc(Nc2c(-c3ccc(CON=Cc4ccc(OCc5ccccc5)cc4)cc3)nc3cc(-c4ccccc4)ccn23)cc1` (mixture of isomers) has an inhibition of 60.7% (TDP1; enzyme activity, inhibitor; 100 µM, unpurified compound).
`CCCCCCOc1ccc(C(=O)OCC[N+]2(C)CC=CCC2)cc1` (stereo not shown) has a basal binding of 0.97 ± 0.03 fold (CHRM3 (Homo sapiens, UniProt P20309); membranes; 1 µM, 15 h, no carbachol; baseline: control).
`O=C(O)c1ccc(Nc2c(-c3ccccc3)nc3ccc(CON=Cc4ccc(OCc5cnc(Cl)s5)cc4)cn23)cc1` has an inhibition of 77.8% (TDP1; enzyme activity, inhibitor; 100 µM, unpurified compound).
For `O=C1c2sc(-c3ccc(N4CCC(F)C4)nc3F)nc2CCN1c1cccnc1` (stereo not shown), the SPR response was 0.894 RU (TAR DNA-binding protein 43, aggregated (TARDBP, Homo sapiens, UniProt Q13148); binding, surface plasmon resonance; brain-derived TDP-43 aggregates; 18.8 nM).
